Experimental data gathered from unrelated publications.
Numbered parts are unrelated; each lists some results of a single study. Positions count from the first letter of the parent shown.

Series 1 — technique: RNAcompete; molecule type: RNA; medium: in vitro; concentration: 20 nM; setting: 7-mer, probes averaged, single round; relative to: mean of 7-mers; reading: higher = stronger binding
Target: PABPC1L2, full length, GST fusion (mouse, UniProt A0ABA7IW68)
Target sequence (chain): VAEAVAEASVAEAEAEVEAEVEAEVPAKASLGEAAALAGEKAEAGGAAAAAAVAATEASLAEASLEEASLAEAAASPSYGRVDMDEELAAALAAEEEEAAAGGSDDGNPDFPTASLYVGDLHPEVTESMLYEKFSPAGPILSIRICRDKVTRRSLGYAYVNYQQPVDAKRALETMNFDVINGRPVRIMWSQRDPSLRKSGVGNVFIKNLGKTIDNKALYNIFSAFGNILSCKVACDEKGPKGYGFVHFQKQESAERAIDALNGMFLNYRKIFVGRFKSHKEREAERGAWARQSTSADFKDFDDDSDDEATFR
Strand | 7-mer Z-score
AGGAGAG | 0.209
GACUCGA | -0.238
UUGCAUU | -0.253
AAGGAGG | 0.352
CUUACCG | -0.257
CCUACGG | -0.179
CCCGAGU | -0.182
GUACAUC | -0.0627
CAUCCGG | -0.132
CGCCAGA | -0.258
UCGGCUG | -0.213
CGGUGUC | -0.166
CCCCGCG | -0.38
ACAGUAA | 0.195
UCUUCAU | -0.342
ACUCUCG | -0.34
UAAACGC | 0.283

Series 2 — technique: RNA Bind-n-Seq; molecule type: RNA; medium: in vitro; concentration: not given; relative to: input RNA pool; reading: higher = stronger binding
Target: RING finger protein unkempt homolog, zinc fingers 1-6, GST-SBP tag (UNK, Homo sapiens, UniProt Q9C0B0, residues 30-357)
Setting: RNA with constant flanks, human and mouse sites, ends assumed
All sequences stand within: GGGAGUUCUACAGUCCGACGAUC … CAACAGAGGAUUGAGCAUCA
Target sequence (chain): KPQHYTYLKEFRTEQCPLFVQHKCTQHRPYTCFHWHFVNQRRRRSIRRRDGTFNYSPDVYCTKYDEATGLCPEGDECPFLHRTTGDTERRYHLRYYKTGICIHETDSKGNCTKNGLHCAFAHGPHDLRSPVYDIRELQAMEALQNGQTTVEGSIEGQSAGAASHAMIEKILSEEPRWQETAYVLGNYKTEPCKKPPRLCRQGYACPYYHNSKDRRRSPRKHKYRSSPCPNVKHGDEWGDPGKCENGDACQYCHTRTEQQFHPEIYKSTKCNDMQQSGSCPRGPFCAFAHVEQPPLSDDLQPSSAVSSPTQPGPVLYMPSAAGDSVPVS
Strand | bound/input enrichment
UUUAUCGUCAAACUGCACUAUGCUUUUCAGACUGAAGGGAAGCUGUACUUAAUAUUGGAUUUCCUCAGGGGAGGAGAUGUCUUCACAAGAUUAUCCAAAGAGGUUCUUUUUACAGAGGAA | 0.188 ratio
UAUUUUCUACUCUGCAGAAAAGGAAGAUGUUGCUGGGCACCCAGGAGCUGAAGUUGCUUUGGUUGGUGGCUUGAAACUUCUAGCUAGACUGUCACUUCUUACAGAACAAGACUUAUGGAC | 0.306 ratio
CAGAGUAUAGCAAUUGUUUUUGGUCCCACUCUAUUAAAACCAGAAAAAGAGACUGGUAAUAUAGCAGUUCAUACUGUGUACCAGAAUCAGAUUGUAGAAUUAAUUCUUCUGGAACUGAGU | 0.453 ratio
GAAAUAACAAGUCUUGAUACAGAGAAUAUAGAUGAAAUUUUAAACAAUGCUGAUGUUGCUUUAGUAAAUUUUUAUGCUGACUGGUGUCGUUUCAGUCAGAUGUUGCAUCCAAUUUUUGAG | 20.3 ratio
GCUGCAAAUUCCUGUGUAGUGGCAGGCCCAAGGCCUUCCCAGGGGAACCAUAGGUGGUGGUAGGUGGGACAUGUGGCCACUUGUUUUGCUUUAAAUACCUCAGUCCUUAUUCUGACAGGA | 0.0752 ratio
GAAGCAAGAGCUUUUGCAGAAAAGAAUGGUUUGUCAUUCAUUGAAACUUCGGCCCUAGACUCUACAAAUGUAGAAGCUGCUUUUCAGACAAUUUUAACAGAGAUUUACCGCAUUGUUUCU | 0.769 ratio
UGGUGCUUUUUCCACCUUGUAUUGUUGUAACUGUAAGCUCCUAGGGGGCAGCAAUUUGGUCUUAGGCGUGUACCCUGUUUAGUGCCUGGCAAUGCCAUGUUUAUAUCAAGGUCUUAAUAU | 2 ratio
AGGAGCGCGCCAUGGCGGUGUCCGAGAGUCAGCUGAAGAAGAUGAUGUCCAAGUACAAAUAUAGAGAUCUAACCGUCCGUCAAACUGUCAAUGUCAUCGCUAUGUACAAAGAUCUCAAAC | 0.0817 ratio
GAUGUCACUCAAGAGCAGCUGGGUGGUGCCAAGACCCACACCACUGUGUCAGGUGUGGCCCAUAGAGCUUUCGACAAUGAUGUUGAUGCUCUGUGUAACCUGCGUGAAUUCUUCAAUUUC | 0.078 ratio
GAUCCCAAAAUUCAUCUCUAAUGUGGUUUUUAAAUGCUGGAGGAUUCCAAUCAAUAUAAAUAUAUAUAUAUAUAUACACACACAUAUAUAAAAAGUAUAAUUUUUCUAUUUUUGUUUUUG | 2.99 ratio
UUGGUGCGGAACCUGUCUGAGGAAGGUCUCUUGCGAUUGUAUCGGACCACUGUCAUUCAAGAUGGCAUCAAGAAGAAGGUGGAUCUGGUGGUGCACCCGUCCAUGGACCAGAACGACCCU | 0.0774 ratio

Series 3 — technique: universal PBM; molecule type: double-stranded DNA, one strand shown; medium: in vitro; concentration: not given; reading: higher = stronger binding
Target: Sal-like protein 4, full length isoform B (SALL4, Homo sapiens, UniProt Q9UJQ4-2, residues 1-616)
Setting: 8-mer, flanks averaged, mean of replicates
Strand | E-score
GTAACAGA | 0.106
AGCGCTGG | -0.137
AATAGCTG | 0.0431
CTCTGCAC | -0.146
ATGGGGAG | -0.103
GAATCCCA | -0.0374
ATCACGAT | 0.167
CTAGAACA | 0.0669
CGTGAAAC | -0.0673
GAGGTCGC | -0.288
AAAAGGAA | 0.0633
AGGAGCTC | -0.184
TAGCGTAA | 0.131
GATAATAC | 0.232
AGCTCCAA | -0.0243
GCTATCCC | -0.0811
CCTGACAC | -0.19

Series 4 — technique: protein-binding microarray; molecule type: double-stranded DNA, one strand shown; medium: in vitro; concentration: 2540 nM top; setting: 60-bp whole probe; together with: salmon DNA 0.4 mg/ml; relative to: random background probes; reading: higher = stronger binding; all sequences stand within: GCCTAGCAC … GTCTTGATTCGCTTGACGCTGCTG
Target: Interferon regulatory factor 3, full length, phosphomimetic (IRF3, Homo sapiens, UniProt Q14653, residues 1-427, S386D/S396D/S398D/S402D/T404D/S405D)
Chain of UniProt Q14653 (whole entry, unmodified, looked up): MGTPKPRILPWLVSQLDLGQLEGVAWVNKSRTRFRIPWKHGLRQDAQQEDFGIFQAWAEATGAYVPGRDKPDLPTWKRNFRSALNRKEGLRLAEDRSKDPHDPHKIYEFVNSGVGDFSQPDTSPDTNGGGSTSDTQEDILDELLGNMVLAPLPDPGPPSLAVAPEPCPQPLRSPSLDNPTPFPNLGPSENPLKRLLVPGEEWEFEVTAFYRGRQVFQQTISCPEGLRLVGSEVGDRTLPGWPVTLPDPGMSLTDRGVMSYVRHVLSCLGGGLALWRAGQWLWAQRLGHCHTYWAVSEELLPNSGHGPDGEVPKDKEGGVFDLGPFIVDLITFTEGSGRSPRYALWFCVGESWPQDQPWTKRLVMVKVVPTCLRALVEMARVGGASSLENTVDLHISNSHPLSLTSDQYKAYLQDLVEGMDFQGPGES
Strand | fitted relative affinity [z-score]
TTAGATTTCAGTCTCTATTAGTGCTAG | 2.48
GACGGACTGGGGTCTCGGGACGTGCTA | -1.07
TCAGTTTTTATTTTCTGACTGTGCTAG | 3.52
CTCTCTTCACATATAATTTTGTGCTAG | 0.967
GACGGACCGCTTCTCCTGACGTGCTAG | 0.129
CTAGGTTTCGGGACTGGGTTAGTGCTA | 4.04
GTAGTTTTCATTATTGTTTCGTGCTAG | 3.58
CCCTTATTCTAGCCTCCATTTGTGCTA | 1.64
GACAATTTCAGACTGGAGACGTGCTAG | 0.61
TCATTTTTCTAGTCCAGACTGTGCTAG | 1.77
GACGATTTCGGTCTCGGGACGTGCTAG | 4.53
TCCACTTTCTTAATGCTTCTGTGCTAG | 2.2
TGAGATCTCAGTCTCGATTAGTGCTAG | 0.448
GACGAACAGGGGTTTCGAGACGTGCTA | 0.552
TCATCTTTTCTTTTCTTACTGTGCTAG | 3.46
TTCTATGACTACATTGCAGCGTGCTAG | 0.0684
ACCCGTACTGGGTCTGGATCGTGCTAG | -0.0949
TCACCTTTGCCTCTGAGACTGTGCTAG | 0.219

Series 5 — technique: protein-binding microarray; molecule type: hairpin DNA; medium: in vitro; concentration: not given; relative to: not given; reading: higher = stronger binding; all sequences stand within: GAGGCCG … CGGCCTCACACTC
Target: Cyclic AMP-dependent transcription factor ATF-1, full length (ATF1, Homo sapiens, UniProt P18846, residues 1-271)
Setting: whole hairpin DNA, median over replicate spots
Residues (chain): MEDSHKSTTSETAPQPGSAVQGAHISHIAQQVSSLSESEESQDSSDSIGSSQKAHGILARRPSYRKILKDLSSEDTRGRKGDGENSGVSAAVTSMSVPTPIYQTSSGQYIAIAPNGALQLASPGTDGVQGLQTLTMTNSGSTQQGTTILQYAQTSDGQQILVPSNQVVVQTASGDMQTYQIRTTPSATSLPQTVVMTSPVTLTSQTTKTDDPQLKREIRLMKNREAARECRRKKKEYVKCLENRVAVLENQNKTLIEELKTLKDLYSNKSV
Strand | median fluorescence [a.u.]
GATGCGGTCAGCCTCCTGGCTGACCGCATC (5mC at 12 32) | 3440
ACGTCGTCGTGCCTCCTGGCACGACGACGT (5mC at 9 15 29 35) | 3310
ACGACGTCGGGCCTCCTGGCCCGACGTCGT (5mC at 9 15 29 35) | 3710
GCTGACGTCCGCCTCCTGGCGGACGTCAGC | 5150
GCTGACGTCAGCCTCCTGGCTGACGTCAGC (5mC at 37) | 10500
GCCGACGTCAGCCTCCTGGCTGACGTCGGC (5mC at 34) | 4540
ACGACCTCGTGCCTCCTGGCACGAGGTCGT (5mC at 9 15 29 35) | 3210
ACAACGTCGTGCCTCCTGGCACGACGTTGT (5mC at 9 15 29) | 3920
ACGACGGCGTGCCTCCTGGCACGCCGTCGT (5mC at 9 15 29 31 35) | 3850
GATCACGTCAGCCTCCTGGCTGACGTGATC (5mC at 11) | 5200
ACGACGTAGTGCCTCCTGGCACTACGTCGT (5mC at 9 29 35) | 6120
GATGCGGTCAGCCTCCTGGCTGACCGCATC | 3490
GCTGCGGTCAGCCTCCTGGCTGACCGCAGC (5mC at 32) | 3520
TCTGACGTCAGCCTCCTGGCTGACGTCAGA | 9720
GCCGACGTCAGCCTCCTGGCTGACGTCGGC | 6020
GATGTCGTCAGCCTCCTGGCTGACGACATC | 4410
GAGGACGTCAGCCTCCTGGCTGACGTCCTC (5mC at 35) | 4520
ACGACATCGTGCCTCCTGGCACGATGTCGT (5mC at 9 15 29 35) | 3310
GCGACGTCGTGCCTCCTGGCACGACGTCGC (5mC at 9 15 29 35) | 4760
ACGACCGCGTGCCTCCTGGCACGCGGTCGT (5mC at 9 15 29 31 35) | 3660

Series 6 — target: CCND1, cyclin fold, Cln2 fusion (human); technique: yeast growth competition, sequencing; medium: yeast; setting: weak parent motif; relative to: not given; reading: higher = stronger binding
Parent: RP1L1 docking peptide (human); TLGLGPLSFTLED
Change | normalised enrichment score
L7A | 0.362
S8A | 0.726
L11A | 0.421
D13A | 0.551
F9A | 0.366
E12A | 0.772
T1A | 0.472

Series 7 — technique: protein binding microarray; molecule type: double-stranded DNA, one strand shown; medium: in vitro; concentration: not given; relative to: not given; reading: higher = stronger binding
Target: Histone acetyltransferase KAT6A, winged helix 1, GST fusion (KAT6A, Homo sapiens, UniProt Q92794, residues 1-85)
Setting: 8-mer, flanks averaged, mean of 2 arrays, mostly near background
Target sequence (chain): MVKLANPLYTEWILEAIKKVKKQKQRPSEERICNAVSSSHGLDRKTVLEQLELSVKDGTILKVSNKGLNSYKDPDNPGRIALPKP
Strand | E-score
CTTTGCTC | -0.207
AGGGGGTG | -0.136
CGCCGGCG | 0.486
AACTTACA | -0.272
CGCGGTGC | 0.416
ACTAGTTG | -0.228
ACCTTTAA | -0.129
AGCGTGAC | 0.112
ATGAAGGG | -0.224
ACCTTTTA | -0.122
AGTCGATG | -0.226
CACATGAG | -0.0586
ATTATGTC | -0.0835
AGCGGAGG | 0.115
ATTAACAA | -0.114
TAAGTGTA | -0.0907
ACGCTGTG | -0.0107
TCTTGTAA | -0.158
GACTGATC | -0.0769
CGGATTAA | 0.104
AGACATCC | -0.254
